Experimental data from different studies.
Every numbered part comes from another study and shows a few of its results, in no order.

Series 1
Target: Histone acetyltransferase KAT6A, winged helix 1, GST fusion (KAT6A, Homo sapiens, UniProt Q92794, residues 1-85)
Method: protein binding microarray
Molecule type: double-stranded DNA, one strand shown
Matrix: in vitro
Concentration: not given
Notes: 8-mer, flanks averaged, mean of 2 arrays, mostly near background
Baseline: not given
Direction: higher = stronger binding
Measurement: E-score
Target sequence (chain): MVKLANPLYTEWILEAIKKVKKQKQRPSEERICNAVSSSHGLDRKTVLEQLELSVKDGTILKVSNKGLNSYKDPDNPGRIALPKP
AGGTAAAC: -0.0422
ACCTAGGG: -0.0553
CCTATCGC: 0.175
ACCCCATA: -0.0879
CTGTGAAC: -0.117
AGGGAGGA: -0.238
AACACAGA: -0.186
ACTAGCCA: -0.201
ACGCGATC: 0.137
CGCATTAG: 0.113
ACGTGGTG: -0.0574
AGCCGTCC: 0.34
ACTCAGTA: 0.00502
CTGTAATA: 0.0608
ATTCTTGA: -0.235
AAGACATG: -0.0942
ATGCTCTG: -0.183

Series 2
Target: Prothrombin, mature alpha-thrombin (F2, Homo sapiens, UniProt P00734)
Method: aptamer microarray, sandwich
Molecule type: DNA with 2'F-ANA
Matrix: in vitro
Concentration: 200 nM
Notes: whole 15-mer aptamer, many near background
With: Cy3 exosite-II aptamer, 400 nM
Direction: higher = stronger binding
Measurement: mean fluorescence intensity
Sequence: GGTTGGTGTGGTTGG
2'F-ANA at 7 9 11 13 14 15: 181 a.u.
2'F-ANA at 1 2 3 4 6 11 13: 111 a.u.
2'F-ANA at 1 5 8 10: 43.8 a.u.
2'F-ANA at 2 3 4 6 9 15: 461 a.u.
2'F-ANA at 1 3 6 8 9 11 12 15: 406 a.u.
2'F-ANA at 2 3 5 6 9 10 13 14: 85.9 a.u.
2'F-ANA at 4 5 6 8 10 11 12 14 15: 46 a.u.
2'F-ANA at 2 3 4 7 8 11: 699 a.u.
2'F-ANA at 1 5 6 7 8 10 12 14 15: 54.9 a.u.
2'F-ANA at 3 4 6 8: 678 a.u.
2'F-ANA at 1 6 7 8 9 11 12: 323 a.u.
2'F-ANA at 1 3 4 7 9 12 13 14: 67.4 a.u.
2'F-ANA at 2 3 4 6 7 13 14 15: 284 a.u.
2'F-ANA at 1 2 6 7 8 9 11 12 13 15: 201 a.u.
2'F-ANA at 1 4 7 8 10 15: 56.3 a.u.
2'F-ANA at 4 7 8 14: 121 a.u.
2'F-ANA at 3 5 6 8 11 14 15: 55.7 a.u.
2'F-ANA at 1 2 6 7 13 14 15: 53.3 a.u.
2'F-ANA at 1 2 3 4 10 11: 58.9 a.u.
2'F-ANA at 1 2 4 5 6 7 9 10: 52.1 a.u.
2'F-ANA at 1 4 8 9 12 15: 317 a.u.
2'F-ANA at 1 2 4 6 12 15: 322 a.u.
2'F-ANA at 2 3 5 7 11 13 14: 78.1 a.u.
2'F-ANA at 1 2 5 8 10 11 13 15: 48.2 a.u.
2'F-ANA at 2 3 4 5 10 13 14: 47.3 a.u.

Series 3
Target: RNA binding protein fox-1 homolog 2, RRM domain, GST-SBP tag (RBFOX2, Homo sapiens, UniProt O43251-10, residues 100-194)
Method: RNA Bind-n-Seq
Molecule type: RNA
Matrix: in vitro
Concentration: 365 nM
Notes: natural RNA segment, single round, ends assumed
Baseline: no-protein control
Direction: higher = stronger binding
Measurement: RBNS enrichment (R)
Target sequence (chain): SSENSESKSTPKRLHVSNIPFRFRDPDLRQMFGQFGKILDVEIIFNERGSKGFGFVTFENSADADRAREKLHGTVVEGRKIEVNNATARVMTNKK
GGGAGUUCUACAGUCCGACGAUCCUCCUCUGUCCUUCUAUAACUAGGUUCCUGUUCUUACACACCUGUCCACCGAAUGUCACUCACUGAGCUGGGGUUGCUUUGUCUGUCUGAUUCAAAAUGUGUCCACACUUUGGAAUUCUCGGGUGCCAA: 0.267
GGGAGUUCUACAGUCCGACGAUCCCCUUCUUAACGAGCAAUAUGUCUGACCUGUACUAUAAGAUCUUUCUGAUAACGCAGAGAUUUUUUGUUUUUUUUUGGUAGCUCAGUAGAAGUGCGUCCUGUUUUCGCCUUGGAAUUCUCGGGUGCCAA: 2.48
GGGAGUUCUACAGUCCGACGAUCUGAGUCCUGACUUCCAAGAGAUUUUAGAAUCUAAGCUGGAUAGUACAGACAGGUAUAAAAGAUGGAUGCUAUAGAUAAGCAGGGUGGCUUAGAUACCCAUAAAAUGCAAAUGGAAUUCUCGGGUGCCAA: 0.435
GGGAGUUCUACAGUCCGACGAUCUUGGGGCCUGAGGAACAACUUUUGCAGGGUGUAUGUACAGUAGAAGGAGACAGAAGAGUUCUGAUGAUAGAUCUCUGCCUCAGUCUGUUGGCUGGCCUAAUCCCCAUGAUUGGAAUUCUCGGGUGCCAA: 0.32
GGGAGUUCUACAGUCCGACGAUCGAGCAUGGUGAGGAGUAGCCAGGGUGAAUUUCACAACAUUUGUACUAGAUUUAGAUGCUCAAGAAUAAAUGUACUGAGAAGAGUUAAUAAUUGUUUAUUCCCAAAUUGAAUGGAAUUCUCGGGUGCCAA: 5.83
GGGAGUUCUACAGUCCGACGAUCUUUCGCCAUAUUGGCCAGGCUGGUCUUGAACUCCUGACCUCGUGAUCCACCCGCCUCACCCUCCCAAAAUGCUGGGAUUACAGGCGUAAGCCACUGCACCUGGCGGGGUCUGGAAUUCUCGGGUGCCAA: 0.268
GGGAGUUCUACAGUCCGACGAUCCUUUGAGGGGCUGCUCUUCUCAUCUGGUGCCAAAAGUUCAUUUGCAGCUUCUACAACAAUCCCCACAAAAGAUGAACAGCCAUUAGAAGCCUCCCCUCCUUUUGAUGCUCUGGAAUUCUCGGGUGCCAA: 0.41
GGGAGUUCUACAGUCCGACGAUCUCCAGCUGUCCCUGUGAGUUAUCCUGGACAUUUCGAUGGUUUUUGGUAAGGCCAAACUCUGAUAAGCAAAACAGAGAAUACUGACGUAUACUUAACCAUAUGUGUAACUGUGGAAUUCUCGGGUGCCAA: 0.197
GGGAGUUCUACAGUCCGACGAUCAACACCAUUUAAAAAGUCAUAUUUUUUCACAAAUAUAGAAAAUCAUUUUACAUAAGAAUUUUAAGUAUUUGCAAUAAAUAUAUGUAUAUAGAUUGUAUGUAUUCCUAUAUUGGAAUUCUCGGGUGCCAA: 0.598
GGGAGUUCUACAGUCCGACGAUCAGGUAGGCUGAGUAUUGGGAAUCCAAAUUGAAUUUUGAUUCUCCUUGGCAGUGAACUACUUUGAAGAAGUGGUCAAUGGGUUGUUGCUGCCAUGAGCAUGUACAACCUCUUGGAAUUCUCGGGUGCCAA: 1.34
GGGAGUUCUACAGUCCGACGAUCAAGGUAGUUAAAAUUUGUAAAUGCUAAGGCGUUGCCAGGUCCUAAUGAGUCAGACCUGUACUACUGAUUAUUAAGCAGGACAGACUGAGCUUUCUGCAAAUAGCUUGAAGUGGAAUUCUCGGGUGCCAA: 0.749
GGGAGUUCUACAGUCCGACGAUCUGUUUUCUCAGCAUGCAUUAAAAAUAUUCCUUAACUUCAAUUGUAAAUAAACUUUUGGUGUUAGGGAUUUCAGUGUCUAUUUUUCUUUUCCUUGUUUCUUCAACUUUGUCUGGAAUUCUCGGGUGCCAA: 33.7

Series 4
Target: RING finger protein unkempt homolog, zinc fingers 1-6, GST-SBP tag (UNK, Homo sapiens, UniProt Q9C0B0, residues 30-357)
Method: RNA Bind-n-Seq
Molecule type: RNA
Matrix: in vitro
Concentration: not given
Notes: RNA with constant flanks, ends assumed
Baseline: input RNA pool
Direction: higher = stronger binding
Measurement: bound/input enrichment
Residues (chain): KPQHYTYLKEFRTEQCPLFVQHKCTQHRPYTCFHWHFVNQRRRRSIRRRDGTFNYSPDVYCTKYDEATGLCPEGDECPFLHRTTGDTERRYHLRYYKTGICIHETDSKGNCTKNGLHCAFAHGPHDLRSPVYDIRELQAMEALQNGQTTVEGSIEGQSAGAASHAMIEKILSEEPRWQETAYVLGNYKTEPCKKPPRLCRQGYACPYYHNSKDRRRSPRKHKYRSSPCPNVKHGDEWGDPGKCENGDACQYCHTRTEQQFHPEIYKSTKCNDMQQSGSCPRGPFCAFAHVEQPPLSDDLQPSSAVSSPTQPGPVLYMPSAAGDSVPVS
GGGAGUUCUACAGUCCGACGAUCGGGCAUAUACAGCUUAUAAUUCCUGGAGAAUCUGCUUGUUUUGCGUGUGCUCCACCACUUGCCGUUGCUGCAAAUAUUGAUGAAAAGACUCUGAAACGAGAAGGUGUUUGUGCAGCCAGUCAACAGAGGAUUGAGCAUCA: 0.286 ratio
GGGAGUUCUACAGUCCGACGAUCACACCCAGUCGCCGAGUCCUGCCCUGUUCUGGCCGCCGGCCCCAACUGGACCUCGACAUCCUCCGCAGCCUCAUCAACUUGUGUGAUAGUCCUGUGUCCCCAUCUGAGGCCAGCCGAACACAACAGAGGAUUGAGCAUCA: 0.0992 ratio
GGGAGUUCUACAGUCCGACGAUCAUCCCAAUUAUGGACACCGGUGAAAACCCAGAGGUGCCCUUCCCUCGGGACAUGAUCGACUCCGAGGCCAAUUUCGAGAAGAUUGAAAAUGAACUGAAGGAAAUCAACACUAACCAGGAACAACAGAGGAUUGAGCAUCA: 0.129 ratio
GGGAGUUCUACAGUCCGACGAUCCACUAGGGGUUGGGAAGGGCGGCGGACGGUGCCGGGGGGAGAUUGGCCUGGCAGGCCCUUUCCGCUACCCAUUACUGGACCAGAAAGAUGACAUCUAUCAUCAAGUUAACCACCCUCUCUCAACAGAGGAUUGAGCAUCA: 0.34 ratio
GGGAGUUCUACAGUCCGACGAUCCAUAAAAACCAAACACUUCUCUAUAAUCUUUUUGACAUUUCUCAGUCUGCACAGACCCCAACCGCAGUUAUUGGUCUUACAUGUAGAUUGGAUAUUUUGGAACUCUUAGAAAAAAGAGUGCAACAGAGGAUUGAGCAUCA: 0.66 ratio
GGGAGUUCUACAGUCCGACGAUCUUUUAGAGUGUGGAAAAACCAAUCUGAGAAGAACAACCUACCUUGUCCUUGAUGAAGCAGACCGAAUGCUUGAUAUGGGCUUUGAACCCCAAAUAAGGAAGAUUGUGGAUCAAAUAAGACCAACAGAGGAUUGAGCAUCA: 0.181 ratio
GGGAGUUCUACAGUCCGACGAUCGAACCGAAAGGCCAAAUCCCCUCCUCCCUUCUCCUGCUUCUGCCAACCGGAAGCACAGAAAACCCGAACUUCAUUGAUUUUGUUUUUUAAAAGAUACACUGAUUUAACAUCUGAUAGGAACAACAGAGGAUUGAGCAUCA: 0.405 ratio
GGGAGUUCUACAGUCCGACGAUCGCCUCACCGUUAGACCAGAACGGAAGCUUCAAUGUUGUUAUUAAAGAGGAACCUCCCGAUGAUUAUGACUACGAACUUGGUGAGUGCCCAGAAGGGGUCACUGUGAAACAGGAAGAGACACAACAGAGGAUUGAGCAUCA: 0.447 ratio
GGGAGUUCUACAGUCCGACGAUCCUGGUUUCCUGGAUUGGAUUGAUCAGUUUGAUUUGUUCUGUAUUUGGCCAAACAGAUAAAAACCGAUGUUUAAAAGCAAAUGCCAAAUCUUGCGGAGAAUGUAUACAAGCAGGGCCAAAUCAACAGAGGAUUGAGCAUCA: 0.204 ratio
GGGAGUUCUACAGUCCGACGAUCCUCAGGUUAGAACAAAAAUGUCAUAAAGGGCACUAAAAGUAACAUUUGGGUUUCACUCCAUAUCCCGAAGAAUUUAGCUCACAAAACAAUUUUUGUGUGUUUUGAGUAACUGAUGCAUAACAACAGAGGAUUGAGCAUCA: 0.48 ratio
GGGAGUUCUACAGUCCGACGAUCAAUAAGGAAAAGUAUGGCAAACCAAAUAAACGGAAAGGUUUUAAUGAAGGAUUGUGGGAGACCGAUAACAAUCCGAAAGUGAAAUUUUCAAGUCAACAGGCAUCAACUAAACAAUCCAAUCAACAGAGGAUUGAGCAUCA: 0.133 ratio

A few entries again (series 1):
ACCCCATA: -0.0879
CTGTGAAC: -0.117
AGGGAGGA: -0.238
AACACAGA: -0.186
ACTAGCCA: -0.201
ACGCGATC: 0.137
CGCATTAG: 0.113
ACGTGGTG: -0.0574
AGCCGTCC: 0.34
ACTCAGTA: 0.00502
CTGTAATA: 0.0608
